Assay results from different studies.
Each numbered part is a random draw from the data of one study; scales do not carry over between parts. “And” joins repeats or separate records; there may be more than shown. Substitutions count along the parent as printed.
Chain of UniProt P23975 (whole entry, looked up): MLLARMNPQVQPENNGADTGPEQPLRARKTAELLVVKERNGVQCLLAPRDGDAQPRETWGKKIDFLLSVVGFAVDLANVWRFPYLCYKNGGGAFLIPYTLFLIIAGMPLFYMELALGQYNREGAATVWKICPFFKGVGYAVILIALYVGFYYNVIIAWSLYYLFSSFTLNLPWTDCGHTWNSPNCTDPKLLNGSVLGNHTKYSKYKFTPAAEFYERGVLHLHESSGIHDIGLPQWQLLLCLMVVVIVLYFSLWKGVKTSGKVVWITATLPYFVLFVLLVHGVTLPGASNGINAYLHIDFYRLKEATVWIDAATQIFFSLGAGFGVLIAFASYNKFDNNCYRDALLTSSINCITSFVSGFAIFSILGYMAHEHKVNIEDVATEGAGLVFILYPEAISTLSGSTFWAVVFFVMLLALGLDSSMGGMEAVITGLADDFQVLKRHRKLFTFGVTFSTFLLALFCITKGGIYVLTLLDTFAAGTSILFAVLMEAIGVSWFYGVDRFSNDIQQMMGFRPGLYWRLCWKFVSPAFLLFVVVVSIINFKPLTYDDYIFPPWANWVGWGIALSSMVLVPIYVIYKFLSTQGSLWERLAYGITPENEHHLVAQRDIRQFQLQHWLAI
Chain of UniProt P11229 (whole entry, looked up): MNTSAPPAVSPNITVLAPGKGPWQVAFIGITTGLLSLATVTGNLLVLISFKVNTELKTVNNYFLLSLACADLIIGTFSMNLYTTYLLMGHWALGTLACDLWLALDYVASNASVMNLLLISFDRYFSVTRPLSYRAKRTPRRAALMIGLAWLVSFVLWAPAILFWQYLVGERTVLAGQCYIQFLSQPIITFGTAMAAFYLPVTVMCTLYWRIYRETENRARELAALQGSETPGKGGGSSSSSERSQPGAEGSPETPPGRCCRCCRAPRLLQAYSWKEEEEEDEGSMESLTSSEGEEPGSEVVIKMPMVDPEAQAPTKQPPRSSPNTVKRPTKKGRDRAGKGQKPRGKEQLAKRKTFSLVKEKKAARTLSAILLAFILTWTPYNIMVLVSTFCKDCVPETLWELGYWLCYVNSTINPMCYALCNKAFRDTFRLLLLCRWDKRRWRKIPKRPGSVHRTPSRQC
Chain of UniProt P20309 (whole entry, looked up): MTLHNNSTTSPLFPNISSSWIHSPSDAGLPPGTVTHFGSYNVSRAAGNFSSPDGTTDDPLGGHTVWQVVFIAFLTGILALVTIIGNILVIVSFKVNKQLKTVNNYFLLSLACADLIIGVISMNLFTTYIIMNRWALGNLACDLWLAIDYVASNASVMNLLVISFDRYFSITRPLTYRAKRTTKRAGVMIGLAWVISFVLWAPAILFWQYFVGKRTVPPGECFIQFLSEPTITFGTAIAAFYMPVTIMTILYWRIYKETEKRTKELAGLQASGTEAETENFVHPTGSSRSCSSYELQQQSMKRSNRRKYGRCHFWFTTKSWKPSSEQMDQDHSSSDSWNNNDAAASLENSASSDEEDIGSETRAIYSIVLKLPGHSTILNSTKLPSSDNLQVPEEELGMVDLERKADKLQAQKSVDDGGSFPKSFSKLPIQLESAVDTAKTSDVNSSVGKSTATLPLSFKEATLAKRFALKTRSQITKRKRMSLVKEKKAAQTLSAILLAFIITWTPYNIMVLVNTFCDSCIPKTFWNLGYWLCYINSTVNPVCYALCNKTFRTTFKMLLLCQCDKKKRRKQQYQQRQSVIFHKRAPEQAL
Chain of UniProt Q01959 (whole entry, looked up): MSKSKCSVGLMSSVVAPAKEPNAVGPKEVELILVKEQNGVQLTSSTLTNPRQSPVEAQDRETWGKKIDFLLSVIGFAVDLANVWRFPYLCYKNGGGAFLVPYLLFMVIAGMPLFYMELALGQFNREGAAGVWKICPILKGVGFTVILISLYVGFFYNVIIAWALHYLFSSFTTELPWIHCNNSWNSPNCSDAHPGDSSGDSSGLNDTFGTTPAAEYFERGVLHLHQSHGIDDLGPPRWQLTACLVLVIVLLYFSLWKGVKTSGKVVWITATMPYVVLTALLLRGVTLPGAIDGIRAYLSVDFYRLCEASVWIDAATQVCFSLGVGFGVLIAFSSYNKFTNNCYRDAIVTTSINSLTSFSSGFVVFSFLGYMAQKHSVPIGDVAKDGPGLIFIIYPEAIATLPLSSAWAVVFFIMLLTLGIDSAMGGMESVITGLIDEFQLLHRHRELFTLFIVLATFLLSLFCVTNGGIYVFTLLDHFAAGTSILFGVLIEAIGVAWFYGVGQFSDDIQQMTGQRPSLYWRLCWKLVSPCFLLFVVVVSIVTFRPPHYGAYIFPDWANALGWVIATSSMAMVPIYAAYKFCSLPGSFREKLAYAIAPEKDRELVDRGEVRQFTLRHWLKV

Sample 1 — tested at: 10 µM; measurement: inhibition
Structure (SMILES): Cc1cc2c(-c3ccco3)cnc(N[C@@H]3CCN(C)C[C@H]3C(=O)NC3CCCCC3)c2[nH]c1=O
Sodium-dependent dopamine transporter (SLC6A3, Homo sapiens, UniProt Q01959); cell-free assay: 28.5%
Muscarinic acetylcholine receptor M3 (CHRM3, Homo sapiens, UniProt P20309); ligand displacement: -11%
Sodium-dependent noradrenaline transporter (SLC6A2, Homo sapiens, UniProt P23975); cell-free assay: 30.5%
Muscarinic acetylcholine receptor M1 (CHRM1, Homo sapiens, UniProt P11229); ligand displacement: -9.42%

Sample 2 — effect on: peptide-MHC binding; molecule type: peptide; tested at: concentration not given; measurement: binding
Target: HLA class I histocompatibility antigen, C alpha chain, allele C*04:01 (Homo sapiens, UniProt P10321)
YQYIFLSFF: inactive
YEHYFVFAA: inactive
FQILHDRFF: inactive
KYFIPVIEI: inactive
YVLNGYTEF: inactive
GFYLSGHLF: inactive
TVYPKTHYV: inactive
TPGRYRTAV: inactive

Sample 3 — target: CCNA1, cyclin fold, Cln2 fusion (human); method: yeast growth competition, sequencing; matrix: yeast; notes: strong parent motif; reference: not given; direction: higher = stronger binding; measurement: normalised enrichment score; starting sequence: viral docking peptide; TSVRRALFTGGSD
TSVRRFLFTGGSD [A6F]: 0.183
TSVRRSLFTGGSD [A6S]: 0.65
TSVQRALFTGGSD [R4Q]: 0.0151
TSVRRALFTDGSD [G10D]: 1.63
TSVRRALFTGGPD [S12P]: 1.24
TSVRRALWTGGSD [F8W]: 0.566
TSVRRALFTFGSD [G10F]: 0.608
TSQRRALFTGGSD [V3Q]: -0.169

Single results of other studies
CC(C)S(=O)(=O)c1cc2c(Nc3ccc4sc(C5CCCC5)nc4c3)ccnc2cc1OCCO  survival (L929 RIPK3-/- reexpressing RIPK3 K51A/R69H; CCK-8; 1.563 µM): 96.8% and 93.4% and 99.6% and 95.9%
